Assay results collected from several papers.
Parts stem from different laboratories: compare values within a part only.

Set 1 — technique: universal PBM; molecule type: double-stranded DNA, one strand shown; medium: in vitro; concentration: 600 nM; direction: higher = stronger binding
Target: Sal-like protein 4, full length isoform A (SALL4, Homo sapiens, UniProt Q9UJQ4, residues 1-1053)
UniProt Q9UJQ4, sequence (whole entry, looked up): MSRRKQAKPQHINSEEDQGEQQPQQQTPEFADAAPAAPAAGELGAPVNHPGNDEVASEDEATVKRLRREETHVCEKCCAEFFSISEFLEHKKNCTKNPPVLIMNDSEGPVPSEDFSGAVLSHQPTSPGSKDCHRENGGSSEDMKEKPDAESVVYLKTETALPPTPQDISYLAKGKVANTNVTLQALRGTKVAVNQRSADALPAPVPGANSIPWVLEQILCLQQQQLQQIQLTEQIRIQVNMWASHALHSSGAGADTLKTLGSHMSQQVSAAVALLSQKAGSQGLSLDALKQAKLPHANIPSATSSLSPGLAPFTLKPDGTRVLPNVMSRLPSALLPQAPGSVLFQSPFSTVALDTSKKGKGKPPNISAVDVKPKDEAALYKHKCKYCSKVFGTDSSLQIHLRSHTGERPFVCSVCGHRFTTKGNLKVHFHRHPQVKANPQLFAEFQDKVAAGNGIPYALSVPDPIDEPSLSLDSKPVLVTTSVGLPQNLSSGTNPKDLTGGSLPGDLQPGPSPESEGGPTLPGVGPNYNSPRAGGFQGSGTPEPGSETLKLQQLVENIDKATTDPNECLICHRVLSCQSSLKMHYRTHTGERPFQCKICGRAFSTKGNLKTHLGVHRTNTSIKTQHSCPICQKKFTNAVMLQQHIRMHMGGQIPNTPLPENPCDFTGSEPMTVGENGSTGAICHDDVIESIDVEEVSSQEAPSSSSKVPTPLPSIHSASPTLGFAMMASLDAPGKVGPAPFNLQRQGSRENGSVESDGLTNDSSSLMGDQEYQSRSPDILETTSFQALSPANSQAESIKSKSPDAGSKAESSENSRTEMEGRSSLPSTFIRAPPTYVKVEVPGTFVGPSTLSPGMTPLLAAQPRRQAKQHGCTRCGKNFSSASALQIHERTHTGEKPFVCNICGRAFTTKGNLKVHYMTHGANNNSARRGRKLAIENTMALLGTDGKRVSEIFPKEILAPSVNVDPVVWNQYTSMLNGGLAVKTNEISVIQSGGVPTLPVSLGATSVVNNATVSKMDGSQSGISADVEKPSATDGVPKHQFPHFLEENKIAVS
Notes: 8-mer, flanks averaged, mean of replicates
`CGCAATAC` gave an E-score of 0.101.
`GATGACCA` gave an E-score of 0.0355.
With `CAGTGGCG` the E-score was -0.297.
With `CGGATGGC` the E-score was -0.192.
For `GAACTATC`, the E-score was -0.00131.
`ATTTGGTC` has an E-score of 0.00102.
The E-score of `CCCAAGCA` is reported as -0.00228.
`CCCCGGTA` has an E-score of -0.346.

Set 2 — effect on: enzyme activity; action: inhibitor; concentration: 20 µM; notes: hit confirmation, with DTT
Target: Replicase polyprotein 1ab, main protease (rep, Severe acute respiratory syndrome coronavirus 2, UniProt P0DTD1)
The inhibition of COc1cccc(C(=O)CCN[C@@H](C)[C@H](O)c2ccccc2)c1 is reported as -7.3%.
C[C@@H](CN1CC(=O)NC(=O)C1)N1CC(=O)NC(=O)C1 has an inhibition of -22.9%.
Nc1ccc2cc3ccc(N)cc3nc2c1 gave an inhibition of 20.4%.
S=C(S)N1CCCC1 gave an inhibition of -11.3%.

Set 3 — technique: competition protein-binding microarray; molecule type: double-stranded DNA, one strand shown; medium: in vitro; concentration: 2 µM; added: Cbf1 competitor, 0.05 µM; direction: higher = stronger binding; all sequences stand within: … GTCTTGATTCGCTTGACGCTGCTG
Target: Phosphate system positive regulatory protein PHO4, full length, GST-tagged (PHO4, Saccharomyces cerevisiae, UniProt P07270, residues 1-312)
Notes: whole 60-bp probe, lowest competitor level
Construct (chain): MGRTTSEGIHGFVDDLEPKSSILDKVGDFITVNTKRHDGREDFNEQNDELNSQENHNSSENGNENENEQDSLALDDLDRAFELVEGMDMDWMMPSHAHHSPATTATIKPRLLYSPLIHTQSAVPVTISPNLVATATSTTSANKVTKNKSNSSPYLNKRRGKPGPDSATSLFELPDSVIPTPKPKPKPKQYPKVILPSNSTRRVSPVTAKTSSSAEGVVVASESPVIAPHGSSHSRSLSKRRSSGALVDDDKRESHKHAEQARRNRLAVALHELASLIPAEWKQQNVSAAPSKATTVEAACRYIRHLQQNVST
For `AACCGTAGGATGTCCCACGTTCGACTTGAACTCGTT`, the fluorescence intensity was 10700 a.u.
For `AACCTACCATGGTAGCACATGAAGAAGCAACCACCC`, the fluorescence intensity was 6140 a.u.
For `TGTACACATAATGGACACGTTTAACAATTAGTGAGC`, the fluorescence intensity was 11600 a.u.
The fluorescence intensity of `TTTTGTTGTTATATTCACGTGCCAGTTTGCTTTTAT` is reported as 17100 a.u.
For `TGCGCAACAACTTGTCACAGTACTTTATGTCTAGAA`, the fluorescence intensity was 3560 a.u.
`CTTTCCCGATCTTGCTAAGTGGGTGTAGCACATTTG` has a fluorescence intensity of 4690 a.u.
For `AAAGAGGGTCCATTCGGCGTGCTTTTGGTACTGTGA`, the fluorescence intensity was 6390 a.u.
The fluorescence intensity of `CCGCGGAATAGCGTTCCCGTGGGTAGAAAAGCAGCA` is reported as 7560 a.u.

Set 4 — effect on: enzyme activity; action: inhibitor; concentration: 20 µM
Target: Replicase polyprotein 1ab, polymerase (rep, Severe acute respiratory syndrome coronavirus 2, UniProt P0DTD1)
COc1ccc(S(=O)(=O)Nc2c(C)cc(C)cc2C)cc1 has an inhibition of -2.89%.
OCCCNc1cc(-c2ccnc(Nc3cccc(Cl)c3)n2)ccn1 has an inhibition of 3.25%.
With CC(C)C[C@H](NC(=O)[C@H](Cc1ccccc1)NC(=O)c1cnccn1)B(O)O the inhibition was -1.16%.
C[C@@H]1CN(Cc2ncccn2)C[C@H]1c1nc2c(cnn2C2CCOCC2)c(=O)[nH]1 gave an inhibition of -2.61%.
Cc1cc(C)c(S(=O)(=O)Nc2cccc(C(F)(F)F)c2)c(C)c1 gave an inhibition of -4.01%.
O=C(Oc1cccc2cccnc12)c1ccccc1 has an inhibition of -4.42%.
COc1cc(Nc2c(C#N)cnc3cc(OCCCN4CCN(C)CC4)c(OC)cc23)c(Cl)cc1Cl gave an inhibition of 15.5%.
COC(=O)c1c(C)[nH]c(C)c1C(=O)c1ccccc1Cc1ccccc1 gave an inhibition of -4.66%.
NS(=O)(=O)c1cc(C(=O)O)cc(N2CCCC2)c1Oc1ccccc1 has an inhibition of 1.64%.
For Cn1ncc(Cl)c1-c1cc(C(=O)N[C@H](CN)Cc2cccc(F)c2)sc1Cl, the inhibition was 1.51%.
COc1cc2c(cc1OC)CN(C(=O)/C=C/c1c(-c3ccccc3)n(C)c3ncccc13)CC2 has an inhibition of 9.74%.
CCCS(=O)(=O)Nc1ccc(F)c(C(=O)c2c[nH]c3ncc(Cl)cc23)c1F gave an inhibition of -5.16%.
For CC(C(=O)O)c1ccc2c(c1)CC(=O)c1ccccc1S2 (stereo not drawn), the inhibition was -0.77%.
CC(=O)Nc1ccc(S(=O)(=O)Nc2ccc([N+](=O)[O-])cc2)cc1 has an inhibition of -3.88%.
With OC(CN1CCNCC1)Cn1c2ccc(Br)cc2c2cc(Br)ccc21 (stereo not drawn) the inhibition was 17.5%.
Cn1cc(C(F)(F)F)nc1-c1ccc(OCC(O)CNCCOc2ccc(O)c(C(N)=O)c2)cc1 (stereo not drawn) has an inhibition of 7.12%.
With CC(C)(C)NCC(O)COc1cccc2[nH]c(C#N)cc12 (stereo not drawn) the inhibition was 5.22%.
CS(=O)(=O)c1cccc(CNc2nc(Nc3ccc4c(c3)CCC(=O)N4)ncc2C(F)(F)F)c1 gave an inhibition of -2.69%.
CCc1cc(Cl)c(OC)c(C(=O)NC[C@@H]2CCCN2CC)c1O has an inhibition of -0.43%.
O=CC[C@@H](O)[C@H](O)[C@H](O)CO gave an inhibition of -0.76%.

Set 5 — cell line: HEK-293T; effect on: pseudovirus infection; technique: FDA-approved drug library screen; organism: VSV pseudotyped with SARS-CoV-2 spike; concentration: 10 µM; time: 16 h; relative to: vehicle-treated
CC(C)[C@H](N)C(=O)OCCOCn1cnc2c(=O)[nH]c(N)nc21 has a GFP-positive cells of 94.2%.
CCCCCCCCCCCCCCCCOP(=O)([O-])OCC[N+](C)(C)C gave a GFP-positive cells of 93.2%.
The GFP-positive cells of CCCCNc1ccc(C(=O)OCCN(C)C)cc1 is reported as 72.7%.
For CN1CCC(OC(c2ccccc2)c2ccccc2)CC1, the GFP-positive cells was 71.6%.
CCC1(C)CC(=O)NC1=O (stereo not drawn) gave a GFP-positive cells of 74.6%.

Some of these lines once more (set 3):
For `TGCGCAACAACTTGTCACAGTACTTTATGTCTAGAA`, the fluorescence intensity was 3560 a.u.
`CTTTCCCGATCTTGCTAAGTGGGTGTAGCACATTTG` has a fluorescence intensity of 4690 a.u.
For `AAAGAGGGTCCATTCGGCGTGCTTTTGGTACTGTGA`, the fluorescence intensity was 6390 a.u.
The fluorescence intensity of `CCGCGGAATAGCGTTCCCGTGGGTAGAAAAGCAGCA` is reported as 7560 a.u.
